Assay results collected from several papers.
Each line is one published result; not all experiments were run side by side. Numbers after ± are the reported error.
IDE: Insulin-degrading enzyme (IDE, Homo sapiens, UniProt P14735)

O=C(CCCCCCC(=O)Nc1cccnc1)NO — viability (HBL-1; 1 µM, 120 h): 36.1%
Cn1cc(-c2ccc(-c3cncc(Cl)c3N3CCC4(CCNC4=O)CC3)cc2)cn1 — log2 fold change (COLO 205; gene expression, microarray, refers to: PRKCDBP mRNA; concentration not given, 2 h; reference: untreated cells): -3.1
Cc1[nH]c(C)c(-c2ccc(-c3ccc(C(F)(F)F)cc3C(F)(F)F)nc2)c(=O)c1Br — IC50 (Plasmodium yoelii; 17XL; 384-well): 116 ± 18 nM
CCCOc1ccn2c(C(C)=O)cc(-c3ccccc3S(C)(=O)=O)c2c1 — viability (HBL-1; 1 µM, 120 h): 88.4%
CC(C)NCC(O)c1ccc(O)c(O)c1 (centres unmarked) — sarcomere length (ventricular cardiomyocytes, C57BL/6 mouse; dose not given, 0.004 s): 1.72 µm
Cc1cc(=O)c(-c2ccc(Oc3ccc(C(F)(F)F)cc3)cc2)c(C)n1O — IC50 (Plasmodium yoelii; 17XL; 384-well): 213 ± 34 nM
C=C(C)[C@@H](CC=C(C)C)C[C@@]12C[C@@H](CC=C(C)C)C(C)(C)[C@@](CC=C(C)C)(C(=O)C(C(=O)c3ccc(O)c(O)c3)=C1O)C2=O — viability (HBL-1; 0.1 µM, 120 h): 54.7%
N#Cc1ccc(N2CCN(Cc3ccc(-c4ccc(-c5nc6cc(C(F)(F)F)ccc6[nH]5)cc4)cc3)CC2)nc1 — IC50 (Plasmodium yoelii; 17XL; 384-well): > 20000 nM
Oc1ccccc1-c1n[nH]cc1-c1ccnc2ccccc12 — log2 fold change (CMK2 (Candida albicans); kinase binding, MIB/MS competition; Candida albicans lysate; 1 µM; reference: DMSO): -0.42
COc1ccccc1NC(=O)N1CCCCN2[C@H](CO)[C@@H](c3ccc(-c4cccc(C)c4)cc3)[C@@H]2C1 — EC50 (IDE; enzyme activity, inhibitor, fluorogenic kinetic; with: Mca-RPPGFSAFK(Dnp)-OH substrate): 7600 nM
Cc1[nH]cc(Br)c(=O)c1-c1ccc(Oc2ccccc2)cc1 — IC50 (Plasmodium yoelii; 17XL; 384-well): 253 ± 109 nM
COc1ccc(CCc2nc3cc(-c4c(C)noc4C)ccc3n2C[C@H](C)N2CCOCC2)cc1Cl — viability (HBL-1; 0.5 µM, 120 h): 117%
O=C(/C=C/C=C/C=C/C1CCCCC1)NC1=C[C@@](O)(/C=C/C=C/C=C/C(=O)NC2=C(O)CCC2=O)[C@@H]2O[C@@H]2C1=O — GI50 (KYSE-150; cell growth, CellTiter-Glo; 78 h): 8870 nM
Cc1[nH]c(C)c(-c2ccc(-c3ccccc3Cl)nc2)c(=O)c1Cl — IC50 (Plasmodium yoelii; 17XL; 384-well): 240 ± 85 nM
COc1cc2nc(N3CCCN(C)CC3)nc(NC3CCN(Cc4ccccc4)CC3)c2cc1OC — viability (HBL-1; 0.5 µM, 120 h): 117%
OC(CCN1CCCCC1)(c1ccccc1)C1CC2C=CC1C2 (centres unmarked) — power, delta EEG, O2-Pz (resting-state EEG; healthy elderly humans; oral, 2 mg, eyes closed, LS mean): 8.9 µV²
COc1cc2c(NC3CCN(C4CCCCC4)CC3)nc(N3CCCN(C(C)C)CC3)nc2cc1OCCCN1CCCCC1 — viability (HBL-1; 1 µM, 120 h): 124%
COc1ccc(NC(=O)N2CCCCN3[C@H](CO)[C@H](c4ccc(-c5ccccc5C)cc4)[C@@H]3C2)cc1 — EC50 (IDE; enzyme activity, inhibitor, fluorogenic kinetic; with: Mca-RPPGFSAFK(Dnp)-OH substrate): 3400 nM
c1coc(-c2n[nH]cc2-c2ccnc3ccccc23)c1 — log2 fold change (ENV7 (Candida albicans); kinase binding, MIB/MS competition; Candida albicans lysate; 10 µM; reference: DMSO): -0.01
Cc1[nH]c(C)c(-c2ccc(OCCCCSc3ccncc3)cc2)c(=O)c1Br — IC50 (Plasmodium yoelii; 17XL; 384-well): 708 ± 289 nM
